Experimental data collected from several papers.
Parts stem from different laboratories: compare values within a part only.

Series 1
Target: Histone acetyltransferase KAT6A, both winged helices, GST fusion (KAT6A, Homo sapiens, UniProt Q92794, residues 1-181)
Technique: protein binding microarray
Molecule type: double-stranded DNA, one strand shown
Medium: in vitro
Concentration: not given
Setting: 8-mer, flanks averaged, mean of 2 arrays, mostly near background
Baseline: not given
Reading: higher = stronger binding
Target sequence (chain): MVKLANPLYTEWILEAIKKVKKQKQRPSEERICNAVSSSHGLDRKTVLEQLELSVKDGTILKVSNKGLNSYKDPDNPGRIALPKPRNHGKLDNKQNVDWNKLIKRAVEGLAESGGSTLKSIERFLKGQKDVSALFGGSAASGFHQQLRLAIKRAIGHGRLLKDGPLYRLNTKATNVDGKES
Strand | E-score
GCAAGTCC | -0.0484
CTCTAGTC | -0.0847
CGTGTCAG | 0.0513
CCGAGCGC | 0.323
GGTCTCTA | -0.0239
ACCTGCCA | -0.252
CTAGAGAA | -0.0754
AGTAGTAG | -0.0686

Series 2
Target: Sal-like protein 4, full length isoform B (SALL4, Homo sapiens, UniProt Q9UJQ4-2, residues 1-616)
Technique: universal PBM
Molecule type: double-stranded DNA, one strand shown
Medium: in vitro
Concentration: not given
Setting: 8-mer, flanks averaged, mean of replicates
Reading: higher = stronger binding
Strand | E-score
ACGCCCCA | -0.295
ATTTAGCA | 0.206
AAGCCGTG | -0.104
ACCTAACT | 0.0638
AGGTCCTG | -0.147
GGCTCATA | 0.116
CCTTAGCC | -0.181

Series 3
Target: Phosphate system positive regulatory protein PHO4, full length, GST-tagged (PHO4, Saccharomyces cerevisiae, UniProt P07270, residues 1-312)
Technique: competition protein-binding microarray
Molecule type: double-stranded DNA, one strand shown
Medium: in vitro
Concentration: 2 µM
Setting: whole 60-bp probe, lowest competitor level
Together with: Cbf1 competitor, 0.05 µM
Reading: higher = stronger binding
Target sequence (chain): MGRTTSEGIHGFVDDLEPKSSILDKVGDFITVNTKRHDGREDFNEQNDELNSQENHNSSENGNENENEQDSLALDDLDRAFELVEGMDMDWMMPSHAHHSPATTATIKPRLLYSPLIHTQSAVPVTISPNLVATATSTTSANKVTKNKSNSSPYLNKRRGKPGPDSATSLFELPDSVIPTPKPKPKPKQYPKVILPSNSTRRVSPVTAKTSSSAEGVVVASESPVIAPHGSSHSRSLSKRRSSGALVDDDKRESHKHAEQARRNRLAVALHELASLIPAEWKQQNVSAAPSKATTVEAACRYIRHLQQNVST
Strand | fluorescence intensity [a.u.]
TGCGCAACAACTTTTCACGTGTTGTTATGTCTAGAAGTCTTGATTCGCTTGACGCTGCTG | 13400
AAAGCGGTAATTTGTCACCGAACTTCACATATCTATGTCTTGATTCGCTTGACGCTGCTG | 3160
AAAGCGGTAATTTGAGGGGTGGGTGCAGATATCTATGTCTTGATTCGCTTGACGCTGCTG | 4710
CTGACCTGACATTTGTTAAAAAGGACGTAAGATCGCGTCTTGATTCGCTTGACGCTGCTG | 3190
CTTTCCCGATCTTGTCACTTGACTTTAGCACATTTGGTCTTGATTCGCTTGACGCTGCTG | 3760
AGGAGAAAATCCGGCCACGATTTAACGGTTGTTGCTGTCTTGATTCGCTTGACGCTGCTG | 6820
CTTTGAACATTAAGGCACATGACAGGCTATGAGCCCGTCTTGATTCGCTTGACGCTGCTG | 9580

Further values, each from its own experiment
Molecule | target | assay | system | conditions | how to read | measurement | value
PhoQ, residues 284 288 289 292 302 303 SVTLVV | PhoP, residues 12 14 15 18 19 MHTVL (Escherichia coli, UniProt P23836) | Sort-seq, item: YFP reporter | E. coli | PhoQ-PhoP variant library, together with: 10 µM Mg2+ | baseline: high Mg2+ state, higher = stronger signaling | fold induction | 13.8

Some of these lines once more (series 3):
Strand | fluorescence intensity [a.u.]
AGGAGAAAATCCGGCCACGATTTAACGGTTGTTGCTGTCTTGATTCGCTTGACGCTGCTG | 6820
CTTTGAACATTAAGGCACATGACAGGCTATGAGCCCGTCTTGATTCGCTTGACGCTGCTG | 9580
